Measurements from different studies.
Parts stem from different laboratories: compare values within a part only. “And” joins repeats or separate records; there may be more than shown. Positions count from the first letter of the parent shown.

Sample 1
Target: CCNE2, cyclin fold, Cln2 fusion (human)
Technique: yeast growth competition, sequencing
Medium: yeast
Setting: strong parent motif
Baseline: not given
Direction: higher = stronger binding
Starting sequence: viral docking peptide; TSVRRALFTGGSD
| Variant | normalised enrichment score |
| --- | --- |
| TSVRRAYFTGGSD [L7Y] | 0.663 |
| TSVDRALFTGGSD [R4D] | -0.309 |
| TSVRRALTTGGSD [F8T] | 0.0612 |
| TSVRRALRTGGSD [F8R] | 0.185 |
| TSVRRASFTGGSD [L7S] | -0.28 |
| TSVRRALFTSGSD [G10S] | 4.37 |
| TSVRRALFTGCSD [G11C] | 4.24 |
| TSVRRALFTGNSD [G11N] | 3.99 |

Sample 2
Target: UDP-N-acetylglucosamine--peptide N-acetylglucosaminyltransferase 110 kDa subunit (OGT, Homo sapiens, UniProt O15294)
UniProt O15294, sequence (whole entry, looked up): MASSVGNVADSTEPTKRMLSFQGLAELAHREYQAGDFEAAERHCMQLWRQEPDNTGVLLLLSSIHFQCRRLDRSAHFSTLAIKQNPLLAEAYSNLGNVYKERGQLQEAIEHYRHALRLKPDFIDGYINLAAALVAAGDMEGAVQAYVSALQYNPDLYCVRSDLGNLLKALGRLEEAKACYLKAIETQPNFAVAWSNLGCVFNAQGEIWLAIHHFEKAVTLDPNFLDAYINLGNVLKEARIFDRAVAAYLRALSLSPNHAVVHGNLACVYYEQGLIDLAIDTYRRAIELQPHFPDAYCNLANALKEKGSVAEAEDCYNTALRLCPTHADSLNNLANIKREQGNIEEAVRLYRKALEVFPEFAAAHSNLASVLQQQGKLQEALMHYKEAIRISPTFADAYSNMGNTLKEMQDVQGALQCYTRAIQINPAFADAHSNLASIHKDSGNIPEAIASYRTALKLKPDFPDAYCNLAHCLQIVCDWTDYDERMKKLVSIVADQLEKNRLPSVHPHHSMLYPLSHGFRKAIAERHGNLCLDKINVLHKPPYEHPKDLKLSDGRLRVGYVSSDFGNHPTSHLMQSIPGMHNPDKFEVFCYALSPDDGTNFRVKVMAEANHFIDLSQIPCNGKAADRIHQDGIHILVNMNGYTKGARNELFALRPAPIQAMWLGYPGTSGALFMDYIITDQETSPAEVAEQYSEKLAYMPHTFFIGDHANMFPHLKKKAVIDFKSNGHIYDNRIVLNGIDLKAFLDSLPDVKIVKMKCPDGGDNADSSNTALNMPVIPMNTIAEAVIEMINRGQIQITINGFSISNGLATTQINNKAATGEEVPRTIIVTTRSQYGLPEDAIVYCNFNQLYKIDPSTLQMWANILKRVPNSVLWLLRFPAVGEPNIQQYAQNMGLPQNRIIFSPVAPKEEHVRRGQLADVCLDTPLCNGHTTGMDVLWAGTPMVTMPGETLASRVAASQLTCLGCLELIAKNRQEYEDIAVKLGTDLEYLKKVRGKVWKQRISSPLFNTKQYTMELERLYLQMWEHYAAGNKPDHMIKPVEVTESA
Observed: binding
Technique: phage display NGS
Molecule type: peptide
Tested at: concentration not given
Baseline: input library
| Molecule | enrichment fold change |
| --- | --- |
| GRYSYDPQYTIDYKR | 2.71 |
| ATRYDMHHPHLHPSN | 3.84 |
| HTAWQPWINGHDHHH | 9.16 |
| DHHYHPHTWTWFTAP | 3.82 |
| HFQEHTSHWHVYSTV | 5.55 |
| TDYMFTQHHWHKVQH | 9.33 |
| DNVYPMYQMTYKAID | 2.28 |
| EAAATFPPMYQLQVV | 14.3 |

Sample 3
Target: inorganic phosphate, free oxyanion
Technique: microfluidic competitive inhibition
Medium: in vitro, cell-free expressed
Tested at: not given
Setting: derived from inhibition constants, unchanged parent 615000 nM
Direction: lower = stronger binding
Starting sequence: PafA, mature enzyme, eGFP fusion (Elizabethkingia meningoseptica, UniProt Q9KJX5); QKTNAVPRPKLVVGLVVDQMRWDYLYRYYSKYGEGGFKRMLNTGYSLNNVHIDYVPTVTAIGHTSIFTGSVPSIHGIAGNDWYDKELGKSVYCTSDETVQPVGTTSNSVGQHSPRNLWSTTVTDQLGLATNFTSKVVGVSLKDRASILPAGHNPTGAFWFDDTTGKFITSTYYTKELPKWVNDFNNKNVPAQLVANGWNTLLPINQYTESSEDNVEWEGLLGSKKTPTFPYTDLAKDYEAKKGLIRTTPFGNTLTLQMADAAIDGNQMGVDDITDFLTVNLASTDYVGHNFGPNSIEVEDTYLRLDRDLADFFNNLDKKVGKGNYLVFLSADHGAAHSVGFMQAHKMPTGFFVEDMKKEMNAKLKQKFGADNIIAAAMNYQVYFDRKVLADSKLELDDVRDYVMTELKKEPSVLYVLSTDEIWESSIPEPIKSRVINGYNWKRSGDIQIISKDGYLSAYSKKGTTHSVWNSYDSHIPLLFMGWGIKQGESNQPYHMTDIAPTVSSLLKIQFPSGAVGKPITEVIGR
| Variant | phosphate dissociation constant [µM] |
| --- | --- |
| G251A | 501 |
| Y415G | 346 |
| G517V | 264 |
| E359V | 648 |
| K166G | 586 |
| P9G | 490 |
| M481V | 588 |
| L87G | 450 |

Mixed results
| SMILES | test system | setting | endpoint | result |
| --- | --- | --- | --- | --- |
| O=C1CCC(N2Cc3c(ccc4c3OCC43CCN(Cc4ccccc4)CC3)C2=O)C(=O)N1 (stereo not shown) | ICR mouse, male, plasma | intravenous, 1 mg/kg, 8 h | plasma concentration | 3.57 ng/mL and 8.48 ng/mL and 3.17 ng/mL |

Excerpt of the above (sample 3):
| Variant | phosphate dissociation constant [µM] |
| --- | --- |
| M481V | 588 |
| E359V | 648 |
| G517V | 264 |
